Measurements of several laboratories.
Compare with care: the assays were run in different laboratories. ± marks the error that the study gave.

CC[C@@H]1C[C@]1(NC(=O)[C@@H]1C[C@@]2(CN1C(=O)[C@@H](NC(=O)[C@@H](NC(=O)[C@@H]1CCCCN1C(C)C)C1CCCCC1)C(C)(C)C)C(C)(C)C21CCC1)C(=O)NS(=O)(=O)N1CCCC1
terminal half-life (human, plasma; oral, dose not given, added: ritonavir): ~11.5 h

CCCCCCCCCCCCC(=O)O.O=C1CCCC2C3CCCN4CCCC(CN12)C34 (stereo not shown)
limiting molar conductivity (conductometry; water; 303.15 K): 47.9 ± 0.09 S cm²/mol

COC(=O)C[C@](O)(CCCC(C)(C)OC(C)=O)C(=O)O[C@@H]1C(OC)=C[C@]23CCCN2CCc2cc4c(cc2[C@H]13)OCO4
tissue concentration (CD1 mouse, stomach; oral, 1 mg/kg, 2 h): 582 ng/mL

CSCC[C@@H]1NC(=O)[C@@H]2CSSC[C@H](NC(=O)[C@H](CO)NC(=O)[C@H](C)N)C(=O)N[C@@H](CCCNC(=N)N)C(=O)N[C@@H]([C@@H](C)O)C(=O)N3CCC[C@H]3C(=O)N[C@@H](CCCCN)C(=O)N[C@@H](CC(=O)O)C(=O)N[C@H]3CSSC[C@H](NC(=O)[C@H](CCCCN)NC(=O)[C@H](CCCNC(=N)N)NC(=O)[C@H](CC(N)=O)NC1=O)C(=O)N[C@@H](CCCCN)C(=O)N[C@H]1CSSC[C@H](NC(=O)[C@@H]4CCCN4C(=O)[C@H](CC(=O)O)NC(=O)[C@H](C)NC3=O)C(=O)N[C@@H](C)C(=O)N[C@@H](CCCCN)C(=O)N[C@@H](CCC(=O)O)C(=O)N[C@@H]([C@@H](C)O)C(=O)NCC(=O)N[C@@H](CSSC[C@@H](C(N)=O)NC(=O)[C@H](CCCNC(=N)N)NC(=O)[C@H](CC(N)=O)NC1=O)C(=O)N1CCC[C@H]1C(=O)N[C@@H](Cc1ccc(O)cc1)C(=O)NCC(=O)N[C@@H](CCCCN)C(=O)N2
Sodium (DA rat pristane-induced arthritis, serum; subcutaneous, 0.1 mg/kg single dose at onset, 21 days): 131 mmol/L

O=C(c1ccc(F)cc1)C1CCN(C2Cc3c(cccc3OCC[18F])CC2O)CC1 (single isomer, unassigned; (-))
tissue uptake (Sprague-Dawley rat, male, kidney; intravenous, dose not given, 120 min): 0.489 ± 0.052 %ID/g

CC1N=C(c2ccccc2F)c2cc(Br)ccc2-n2cnc(C(=O)OC3OC(CO)C(O)C(O)C3O)c21 (stereo not shown)
excretion in urine and feces (Swiss Webster mouse; intraperitoneal, 750 µg of parent drug, 0 to 48 h; baseline: dose): 16.3 ± 7.3%

C[C@@H](O)[C@H](NC(=O)[C@H](CCCCN)NC(=O)COCCN)C(=O)N[C@@H](CCCNC(=N)N)C(=O)NC(C)(C)C(=O)N[C@@H](CCCNC(=N)N)C(=O)NC(C)(C)C(=O)N[C@H](C(=O)N[C@@H](CO)C(=O)N[C@@H](Cc1c[nH]cn1)C(=O)N[C@@H](Cc1ccc(O)cc1)C(=O)NCC(=O)O)[C@@H](C)O
mean corpuscular haemoglobin (C57BL/6 mouse, blood; intravenous, 50 mg/kg, 10 h): 11.1 to 12.7 pg

Cc1ccc(/C=C/C(=O)O)cc1-c1cc2c(cc1C)C(C)(C)CCC2(C)C
blood cholesterol (Sprague-Dawley rat, male; oral, 100 mg/kg, 9 h, sesame oil vehicle): 66 ± 15.1 mg/dL

O=c1cc(-c2ccccc2)oc2c(Br)c(O)c(O)c(O)c12
CL (C57BL/6 mouse, plasma; po, 50 mg/kg): 1060 ± 450 mL/h

[3H]c1sc(C)nc1C=C(C)C1CC2C(CCCC(C)C(O)C(C)C(=O)C(C)(C)C(O)CC(=O)O1)N2CCO (stereo not shown)
plasma concentration (CD2F1 mice, plasma; intravenous, 2.2 nmol/kg, 2 h): 55.2 ± 4.7 ng/mL

CN(C)C(CNC(=O)Nc1cc(C(F)(F)F)ccc1N1CCOCC1)c1ccncc1 (stereo not shown)
serum calcium (mouse, serum; intraperitoneal, 120 mg/kg single dose): 8.6 mg/dL

CC(C)C[C@H](NC(=O)[C@H](CCCCN)NC(=O)[C@H](CCC(=O)O)NC(=O)[C@H](C)NC(=O)[C@@H](NC(=O)[C@H](CCCCN)NC(=O)[C@H](CC(=O)O)NC(=O)[C@H](Cc1ccc(O)cc1)NC(=O)[C@H](Cc1ccccc1)NC(=O)[C@H](C)NC(=O)[C@H](CCCCN)NC(=O)[C@H](CC(C)C)NC(=O)[C@H](Cc1c[nH]c2ccccc12)NC(=O)[C@@H](N)CC(=O)O)C(C)C)C(=O)N[C@@H](CCCCN)C(=O)N[C@@H](CCC(=O)O)C(=O)N[C@@H](C)C(=O)N[C@@H](Cc1ccccc1)C(=O)N1CCC[C@H]1C(=O)N[C@@H](CC(=O)O)C(=O)N[C@@H](Cc1c[nH]c2ccccc12)C(=O)N[C@@H](C)C(=O)N[C@@H](CCCCN)C(=O)N[C@@H](C)C(=O)N[C@@H](C)C(=O)N[C@@H](Cc1ccc(O)cc1)C(=O)N[C@@H](CC(=O)O)C(=O)N[C@@H](CCCCN)C(=O)N[C@@H](C)C(=O)N[C@@H](C)C(=O)N[C@@H](CCC(=O)O)C(=O)N[C@@H](CCCCN)C(=O)N[C@@H](C)C(=O)N[C@@H](CCCCN)C(=O)N[C@@H](CCC(=O)O)C(=O)N[C@@H](C)C(=O)N[C@@H](C)C(=O)O
volume of distribution at steady state (cynomolgus monkey female, plasma; intravenous infusion, 8 mg/kg, day 1, 30 min infusion): 0.053 L/kg

COc1cc(NC(=O)C(=O)c2c(C)n(Cc3ccc(Cl)cc3)c3ccc(C)cc23)ccn1
AUC(0-inf) (female cynomolgus monkey, plasma; oral, 10 mg/kg): 3660 ng·h/mL

CC1=CC(C)(C)N=C2C=CC(=O)C=C12
MTD (general toxicity; mouse; oral): 425 mg/kg

CC[C@H](C)C(=O)N1CCC(NC(=O)Nc2ccc(OC(F)(F)F)c(F)c2)CC1
subjects with insomnia TEAE (healthy volunteers; oral, 8 mg single dose): 0%

CC(CCC(=O)NCC(=O)O)C1CCC2C3CCC4CC(OC5OC(C(=O)O)C(O)C(O)C5O)CCC4(C)C3CC(O)C12C (stereo not shown)
plasma concentration (human, SLCO1B1 *5/*14, plasma; geometric mean, sex-adjusted): 100 ng/mL

CC[C@H](C)[C@H](NC(=O)[C@H](CCCNC(=N)N)NC(=O)[C@H](CCCNC(=N)N)NC(=O)[C@H](CC(C)C)NC(=O)[C@H](Cc1c[nH]c2ccccc12)NC(=O)[C@H](CCCCN)NC(=O)[C@H](CCCNC(=N)N)NC(=O)[C@H](CCCCN)NC(=O)[C@H](CCCNC(=N)N)NC(=O)[C@H](CCCNC(=N)N)NC(=O)CN)C(=O)NCC(=O)N[C@@H](CCCCN)C(=O)NCC(=O)N[C@H](C(=O)N[C@@H](CCCCN)C(=O)N[C@H](C(=O)N[C@H](C(=O)NCC(=O)NCC(=O)N[C@@H](C)C(=O)N[C@@H](C)C(=O)N[C@@H](CC(C)C)C(=O)N[C@@H](CC(=O)O)C(=O)N[C@@H](Cc1c[nH]cn1)C(=O)N[C@@H](CC(C)C)C(N)=O)[C@@H](C)CC)[C@@H](C)CC)C(C)C
acute toxic concentration (zebrafish embryos; 1 h, 4, 28, 52 hpf): 5 to 25 µg/mL

O=C(O)[c-]1cccc1.O=C(Oc1ccc(-n2cccc2)cc1)[c-]1cccc1.[Fe+2]
ΔE (cyclic voltammetry; acetonitrile; baseline: Ag/AgCl): 126 mV

CCCCCCCC/C=C\CCCCCCCCOP(O)(O)=S.N
Cmax (mouse, female, irradiated; sc, dose not given, 15.6 Gy partial-body, dosed 24 h after): 407 ng/mL

CC(C)[C@H](NC(=O)CNC(=O)[C@H](CCC(N)=O)NC(=O)[C@H](C)N)C(=O)O
discontinuation due to adverse events (human; 30 mg/kg, 3 days, thrice daily dosing): 0%

COc1ccc(NC(=O)Cn2c(=O)c3ccccc3n(CC(=O)Nc3cc([125I])c(OC)cc3OC)c2=O)cc1
tracer uptake (rat, intestine; intravenous, 30 min): 5.32 %ID/g

CC(C)C[C@@H](N)C(=O)NCC(=O)N[C@H](C)C(=O)N[C@H](CO)C(=O)N[C@H](Cc1c[nH]c2ccccc12)C(=O)N[C@H](Cc1c[nH]cn1)C(=O)N[C@H](CCCNC(=N)N)C(=O)N1CCC[C@@H]1C(=O)N[C@H](CC(=O)O)C(=O)N[C@H](CCCCN)C(=O)N[C@H](CS)C(=O)N[C@H](CS)C(=O)N[C@H](CC(C)C)C(=O)NCC(=O)N[C@H](Cc1ccc(O)cc1)C(=O)N[C@H](CCC(N)=O)C(=O)N[C@H](CCCCN)C(=O)N[C@H](CCCNC(=N)N)C(=O)N1CCC[C@@H]1C(=O)N[C@H](CC(C)C)C(=O)N1CCC[C@@H]1C(N)=O
measured concentration (LC-MS/MS; rat plasma; 5000 ng/mL, 12 h, 25 °C, room temperature before extraction): 5710 ± 100 ng/mL

A few entries again:
CC[C@H](C)[C@H](NC(=O)[C@H](CCCNC(=N)N)NC(=O)[C@H](CCCNC(=N)N)NC(=O)[C@H](CC(C)C)NC(=O)[C@H](Cc1c[nH]c2ccccc12)NC(=O)[C@H](CCCCN)NC(=O)[C@H](CCCNC(=N)N)NC(=O)[C@H](CCCCN)NC(=O)[C@H](CCCNC(=N)N)NC(=O)[C@H](CCCNC(=N)N)NC(=O)CN)C(=O)NCC(=O)N[C@@H](CCCCN)C(=O)NCC(=O)N[C@H](C(=O)N[C@@H](CCCCN)C(=O)N[C@H](C(=O)N[C@H](C(=O)NCC(=O)NCC(=O)N[C@@H](C)C(=O)N[C@@H](C)C(=O)N[C@@H](CC(C)C)C(=O)N[C@@H](CC(=O)O)C(=O)N[C@@H](Cc1c[nH]cn1)C(=O)N[C@@H](CC(C)C)C(N)=O)[C@@H](C)CC)[C@@H](C)CC)C(C)C
acute toxic concentration (zebrafish embryos; 1 h, 4, 28, 52 hpf): 5 to 25 µg/mL

O=C(O)[c-]1cccc1.O=C(Oc1ccc(-n2cccc2)cc1)[c-]1cccc1.[Fe+2]
ΔE (cyclic voltammetry; acetonitrile; baseline: Ag/AgCl): 126 mV
